# Published values collected from several papers.
# Values joined by “and” are separate records of one study, mostly repeats; a detail may differ.
# Target: Serine/threonine-protein kinase LATS2 (LATS2, Homo sapiens, UniProt Q9NRM7)
SMILES,test,setting,how to read,endpoint,result
CCN1CCN(Cc2ccc(C(=O)Nc3ccc(C)c(NCc4cnc5[nH]ccc5c4OC)c3)cc2C(F)(F)F)CC1,"binding, competition with immobilised ligand",1 µM,,remaining binding,100%
NC(=O)[C@@H](O)C[C@H]1CCc2sc3ncnc(O[C@H]4CC[C@H](N5CCOCC5)CC4)c3c21,"enzyme activity, inhibitor",10 µM,,inhibition,10%
CC(C)=CC1OC(C)(C)C2C=C3C(=O)C(Cl)=CC(O)C3C3C(O)C4OC4C(=O)C132 (stereo not shown),"cell-free assay, competition with immobilised ligand",10 µM,,remaining binding,99%
CN1CCN(Cc2ccc(-c3ccc(CO[C@H]4CCC[C@@H]4NC(=O)c4cc(-c5cnn(C)c5)cnc4N)cc3)cc2)CC1,"enzyme activity, inhibitor",0.1 µM,,inhibition,7%
Cc1cccc(O[C@H]2CCC[C@@H](C(C)CNCc3ccncc3)C2)c1 (relative stereo),"kinase activity, kinome panel screening",1 µM,,inhibition,1%
Nc1ncc2c(n1)-c1c([nH]c3ccc(C4=CCOCC4)cc13)CCC2,"binding, competition with immobilised ligand",1 µM,,remaining binding,77%
Cc1c[nH]c2nccc(-c3ccc(C(=O)N[C@@H]4c5c(F)cc(C(F)F)cc5C[C@@H]4O)cn3)c12,"binding, competition with immobilised ligand",3 µM,,remaining binding,0%
COc1c(Cl)cccc1Nc1c(-c2ccncc2C#C[C@@]2(C)CCCN2C(=O)/C=C/CN(C)C)[nH]c2c1C(=O)NCC2,"binding, competition with immobilised ligand",3 µM,,remaining binding,76%
CNC(=O)C1CCN(c2cc(C)c(F)cc2NC(=O)c2ccc(-c3cc(O)ccc3C)c(C)c2)CC1,"binding, competition with immobilised ligand",1 µM,,remaining binding,84%
COc1cc(Nc2nccc(-c3cnn4nc(OC)ccc34)n2)cc(C(F)(F)F)c1,"binding, competition with immobilised ligand",1 µM,,remaining binding,96%
C=CC(=O)N1CCc2ccc(-n3c(=O)ccc4cnc5ccc(-c6cnn(C)c6)cc5c43)cc21,KINOMEscan,1 µM,reference: DMSO control,remaining binding,70%
Cc1cnc2nc1Nc1cccc(c1)COC/C=C/COCc1cc(ccc1OCCN1CCOCC1)N2,,concentration not given,,percent of control,96%
C=CC(=O)Nc1cccc(-c2cnc3[nH]cc(C(=O)NC(C)(C)C)c3n2)c1,kinase activity,0.1 µM,,inhibition,5% and 4%

# Repeated from above:
SMILES,test,setting,how to read,endpoint,result
Cc1c[nH]c2nccc(-c3ccc(C(=O)N[C@@H]4c5c(F)cc(C(F)F)cc5C[C@@H]4O)cn3)c12,"binding, competition with immobilised ligand",3 µM,,remaining binding,0%
